Published values from different studies.
Parts stem from different laboratories: compare values within a part only. Substitutions count along the parent as printed.

Series 1
Target: Sal-like protein 4, full length isoform B (SALL4, Homo sapiens, UniProt Q9UJQ4-2, residues 1-616)
Technique: universal PBM
Molecule type: double-stranded DNA, one strand shown
Medium: in vitro
Tested at: not given
Notes: 8-mer, flanks averaged, mean of replicates
Reading: higher = stronger binding
Quantity: E-score
Target sequence (chain): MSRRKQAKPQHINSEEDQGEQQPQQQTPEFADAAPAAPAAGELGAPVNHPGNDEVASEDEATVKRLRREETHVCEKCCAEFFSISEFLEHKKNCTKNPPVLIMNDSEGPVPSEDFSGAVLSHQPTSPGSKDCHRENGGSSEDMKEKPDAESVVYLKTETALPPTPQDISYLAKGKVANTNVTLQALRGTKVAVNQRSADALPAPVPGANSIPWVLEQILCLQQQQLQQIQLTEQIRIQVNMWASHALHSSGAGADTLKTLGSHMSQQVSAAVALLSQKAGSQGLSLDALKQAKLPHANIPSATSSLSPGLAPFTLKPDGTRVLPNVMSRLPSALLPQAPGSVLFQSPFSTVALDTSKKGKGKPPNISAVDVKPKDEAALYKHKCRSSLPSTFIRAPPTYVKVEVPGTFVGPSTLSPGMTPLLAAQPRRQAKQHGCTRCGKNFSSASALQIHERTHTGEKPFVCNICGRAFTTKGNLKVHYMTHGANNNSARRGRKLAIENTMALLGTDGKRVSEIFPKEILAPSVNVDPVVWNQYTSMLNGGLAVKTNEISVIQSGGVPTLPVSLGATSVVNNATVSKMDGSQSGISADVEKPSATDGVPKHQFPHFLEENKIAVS
ATCGTAGC: 0.114
AGTAACGC: -0.0571
ATACCAAT: 0.169
AGCCCTGA: -0.226
CCGCGGTA: -0.231
ATAGGACC: -0.105
TCGGTGCA: -0.171
AGGGAAAT: 0.0566
TCCGTCAA: 0.0543
CCGGGCCA: -0.373
AAAGCTTG: -0.00631
CGCGGTAA: -0.085
GCGCACAC: -0.192
CCATAGTC: -0.0409
CTAGAGCC: -0.157
TACTGTAA: 0.197
CAAGATAG: -0.0578
ATATAAAA: 0.356

Series 2
Target: CCND3, cyclin fold, Cln2 fusion (human)
Technique: yeast growth competition, sequencing
Medium: yeast
Notes: weak parent motif
Reference: not given
Reading: higher = stronger binding
Quantity: normalised enrichment score
Starting sequence: ORC1 docking peptide (human); PRARKRLELGNLG; partner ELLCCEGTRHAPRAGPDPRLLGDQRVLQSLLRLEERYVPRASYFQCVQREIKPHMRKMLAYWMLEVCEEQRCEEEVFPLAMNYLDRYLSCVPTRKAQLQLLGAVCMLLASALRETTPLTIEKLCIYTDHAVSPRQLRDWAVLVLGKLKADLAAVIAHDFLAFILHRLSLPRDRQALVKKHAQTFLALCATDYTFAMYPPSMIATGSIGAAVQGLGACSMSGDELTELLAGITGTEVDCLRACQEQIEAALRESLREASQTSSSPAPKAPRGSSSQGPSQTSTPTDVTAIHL
PHARKRLELGNLG [R2H]: 0.112
PRARKRLELGMLG [N11M]: 0.22
PRARARLELGNLG [K5A]: 0.124
PRARKKLELGNLG [R6K]: 0.0967
PRARKRLEKGNLG [L9K]: 0.14
PRARARAELGNLG [K5A L7A]: 0.22
PRAWKRLELGNLG [R4W]: 0.128
PYARKRLELGNLG [R2Y]: 0.0678

Series 3
Target: Interferon regulatory factor 7, full length, phosphomimetic (IRF7, Homo sapiens, UniProt Q92985, residues 1-503, S101K/S471D/S472D/S475D/S476D/S477D/S483D/S484D/S487D)
Sequence of UniProt Q92985 (whole entry, unmodified, looked up): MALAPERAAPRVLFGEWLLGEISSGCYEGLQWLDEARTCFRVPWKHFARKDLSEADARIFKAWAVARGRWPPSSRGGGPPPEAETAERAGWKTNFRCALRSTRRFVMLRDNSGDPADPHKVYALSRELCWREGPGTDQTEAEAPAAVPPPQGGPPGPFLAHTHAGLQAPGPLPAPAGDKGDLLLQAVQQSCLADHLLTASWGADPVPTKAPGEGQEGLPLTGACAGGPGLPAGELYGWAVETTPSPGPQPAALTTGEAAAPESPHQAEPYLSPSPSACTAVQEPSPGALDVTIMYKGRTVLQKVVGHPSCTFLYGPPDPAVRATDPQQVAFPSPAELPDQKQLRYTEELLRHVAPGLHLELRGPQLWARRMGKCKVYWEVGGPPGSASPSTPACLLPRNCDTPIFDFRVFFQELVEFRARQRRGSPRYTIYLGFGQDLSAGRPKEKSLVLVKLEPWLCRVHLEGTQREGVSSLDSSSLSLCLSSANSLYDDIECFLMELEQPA
Technique: protein-binding microarray
Molecule type: double-stranded DNA, one strand shown
Medium: in vitro
Tested at: 250 nM
Notes: 60-bp whole probe
Added: salmon DNA 0.4 mg/ml
Reference: random background probes
Reading: higher = stronger binding
Quantity: log fluorescence
Constant ends, left off below: GCCTAGCAC … GTCTTGATTCGCTTGACGCTGCTG
GACGATTTCGGTTCCGGGACGTGCTAG: 2.89 z-score
GACGATTTCAGTCGCGAGACGTGCTAG: 0.336 z-score
ACCTGAGTCCCTATCTCCTCGTGCTAG: -0.15 z-score
TTGGATTTCAGACTGGATTAGTGCTAG: -0.188 z-score
GTCGGTTTCGACACTGGGGACGTGCTA: 4.51 z-score
GACGGTATCTACTATCGGGACGTGCTA: -0.389 z-score
GACGATATCAGACCGGAGACGTGCTAG: -0.196 z-score
TTAGATATCAGTATCGAATAGTGCTAG: 0.426 z-score
TTAGGTTTCGGGTATCGGTTAGTGCTA: 7.92 z-score
TTAGAACTGGGGTTTCGATAAGTGCTA: 2.01 z-score
GACGGACTGGGTAGCGGGACGTGCTAG: -0.722 z-score
GACGGTTTCGAGTATCGGGACGTGCTA: 6.41 z-score
GACGGTCTCCTACTGCTCACGTGCTAG: -0.205 z-score
TCAGCTTTCTTTTATGCACTGTGCTAG: 0.345 z-score
TTAGGACTGCTTTTCCTTAAGTGCTAG: 1.3 z-score
TCATCTTTCCATACTGCACTGTGCTAG: 1.42 z-score
GACGATTTCAGAATCGAGACGTGCTAG: 0.371 z-score
GACAGTATCGGGTATCGGGACGTGCTA: 0.127 z-score

Other studies, line by line
PhoQ, residues 284 288 289 292 302 303 TSTLRA — fold induction (PhoP, residues 12 14 15 18 19 HEGLL (Escherichia coli, UniProt P23836); Sort-seq, measured: YFP reporter; E. coli; PhoQ-PhoP variant library, added: 10 µM Mg2+; reference: high Mg2+ state, higher = stronger signaling): 10.4

Some of these lines once more (series 1):
TCGGTGCA: -0.171
AGGGAAAT: 0.0566
TCCGTCAA: 0.0543
CCGGGCCA: -0.373
AAAGCTTG: -0.00631
CGCGGTAA: -0.085
GCGCACAC: -0.192
